Measured values gathered from unrelated publications.
Protocols differ between the studies behind these lines. Several values in a cell are separate wells, animals, samples, runs or records. ± marks the error that the study gave.
Chain of UniProt P21554 (whole entry, unmodified, looked up): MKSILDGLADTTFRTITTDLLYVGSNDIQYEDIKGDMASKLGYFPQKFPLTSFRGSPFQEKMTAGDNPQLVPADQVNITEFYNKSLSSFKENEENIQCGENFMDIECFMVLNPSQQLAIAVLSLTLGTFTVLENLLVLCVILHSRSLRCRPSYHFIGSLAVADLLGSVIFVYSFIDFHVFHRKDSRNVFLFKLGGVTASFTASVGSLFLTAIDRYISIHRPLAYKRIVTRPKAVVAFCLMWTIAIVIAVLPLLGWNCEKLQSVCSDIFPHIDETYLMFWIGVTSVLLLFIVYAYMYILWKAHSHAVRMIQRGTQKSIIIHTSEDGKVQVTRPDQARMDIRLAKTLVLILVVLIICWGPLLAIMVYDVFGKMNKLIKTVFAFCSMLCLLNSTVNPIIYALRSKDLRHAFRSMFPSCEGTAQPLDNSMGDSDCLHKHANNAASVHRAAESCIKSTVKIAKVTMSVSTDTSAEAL
Chain of UniProt Q01959 (whole entry, looked up): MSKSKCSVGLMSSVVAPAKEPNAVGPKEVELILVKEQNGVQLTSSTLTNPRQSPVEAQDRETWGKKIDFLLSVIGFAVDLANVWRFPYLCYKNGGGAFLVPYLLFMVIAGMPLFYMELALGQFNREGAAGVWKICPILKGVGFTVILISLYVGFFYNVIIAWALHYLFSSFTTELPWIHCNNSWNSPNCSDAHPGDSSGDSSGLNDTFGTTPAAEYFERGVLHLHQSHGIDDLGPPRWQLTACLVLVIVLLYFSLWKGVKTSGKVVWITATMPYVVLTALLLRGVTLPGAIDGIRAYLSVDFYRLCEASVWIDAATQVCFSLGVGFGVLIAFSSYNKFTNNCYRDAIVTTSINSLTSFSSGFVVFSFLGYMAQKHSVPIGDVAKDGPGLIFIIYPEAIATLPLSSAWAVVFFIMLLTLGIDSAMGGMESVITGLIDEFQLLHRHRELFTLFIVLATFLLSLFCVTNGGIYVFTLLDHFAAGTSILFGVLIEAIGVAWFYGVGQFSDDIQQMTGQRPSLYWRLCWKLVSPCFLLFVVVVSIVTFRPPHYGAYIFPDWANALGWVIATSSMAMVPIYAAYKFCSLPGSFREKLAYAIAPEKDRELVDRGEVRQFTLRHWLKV
Chain of UniProt Q7RTN6 (whole entry, looked up): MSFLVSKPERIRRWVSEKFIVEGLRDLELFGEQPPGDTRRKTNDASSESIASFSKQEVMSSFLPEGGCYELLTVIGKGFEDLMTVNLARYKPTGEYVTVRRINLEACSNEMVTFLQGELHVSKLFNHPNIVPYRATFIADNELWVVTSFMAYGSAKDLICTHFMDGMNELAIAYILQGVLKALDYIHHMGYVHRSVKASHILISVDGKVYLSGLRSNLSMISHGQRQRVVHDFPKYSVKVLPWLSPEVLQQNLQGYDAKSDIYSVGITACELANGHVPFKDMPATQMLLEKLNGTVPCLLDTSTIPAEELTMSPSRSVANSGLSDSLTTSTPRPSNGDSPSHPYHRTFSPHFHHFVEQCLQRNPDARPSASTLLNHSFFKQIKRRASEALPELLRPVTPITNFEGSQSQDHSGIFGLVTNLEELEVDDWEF
Chain of UniProt P49137 (whole entry, looked up): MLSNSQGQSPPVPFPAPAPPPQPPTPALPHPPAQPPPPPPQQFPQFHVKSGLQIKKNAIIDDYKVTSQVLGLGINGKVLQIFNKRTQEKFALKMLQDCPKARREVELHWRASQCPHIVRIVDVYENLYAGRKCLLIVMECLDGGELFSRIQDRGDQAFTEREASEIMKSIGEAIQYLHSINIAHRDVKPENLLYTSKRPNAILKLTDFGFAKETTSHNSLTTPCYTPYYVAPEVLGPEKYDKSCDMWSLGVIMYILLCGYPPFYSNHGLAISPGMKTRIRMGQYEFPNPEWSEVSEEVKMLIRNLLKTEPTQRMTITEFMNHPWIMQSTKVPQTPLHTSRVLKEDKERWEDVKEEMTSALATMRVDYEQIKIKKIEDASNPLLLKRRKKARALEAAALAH
Chain of UniProt Q15208 (whole entry, looked up): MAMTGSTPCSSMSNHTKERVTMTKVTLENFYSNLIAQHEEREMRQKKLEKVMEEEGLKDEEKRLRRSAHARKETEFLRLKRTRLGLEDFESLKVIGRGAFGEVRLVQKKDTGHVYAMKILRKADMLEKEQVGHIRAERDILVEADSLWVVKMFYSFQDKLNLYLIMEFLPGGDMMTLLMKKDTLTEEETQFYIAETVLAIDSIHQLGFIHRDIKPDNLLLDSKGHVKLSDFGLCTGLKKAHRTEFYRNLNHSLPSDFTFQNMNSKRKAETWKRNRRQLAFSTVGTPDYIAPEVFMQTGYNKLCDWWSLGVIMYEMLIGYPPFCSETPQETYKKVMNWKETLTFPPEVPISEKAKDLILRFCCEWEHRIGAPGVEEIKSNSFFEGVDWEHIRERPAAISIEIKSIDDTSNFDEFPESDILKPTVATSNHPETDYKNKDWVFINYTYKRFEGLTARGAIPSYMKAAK
Chain of UniProt O14757 (whole entry, looked up): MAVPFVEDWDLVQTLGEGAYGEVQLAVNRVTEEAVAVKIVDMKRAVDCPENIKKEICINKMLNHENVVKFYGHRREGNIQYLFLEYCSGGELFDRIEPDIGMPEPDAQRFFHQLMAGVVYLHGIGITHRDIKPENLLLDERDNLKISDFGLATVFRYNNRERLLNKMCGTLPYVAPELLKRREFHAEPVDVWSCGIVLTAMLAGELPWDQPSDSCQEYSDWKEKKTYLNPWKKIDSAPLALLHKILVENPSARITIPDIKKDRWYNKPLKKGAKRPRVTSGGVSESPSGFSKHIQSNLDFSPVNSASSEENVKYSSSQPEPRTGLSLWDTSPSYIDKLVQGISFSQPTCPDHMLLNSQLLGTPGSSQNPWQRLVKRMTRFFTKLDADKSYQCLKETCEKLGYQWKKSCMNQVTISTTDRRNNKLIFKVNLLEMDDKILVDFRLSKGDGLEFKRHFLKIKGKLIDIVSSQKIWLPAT
Chain of UniProt P54646 (whole entry, looked up): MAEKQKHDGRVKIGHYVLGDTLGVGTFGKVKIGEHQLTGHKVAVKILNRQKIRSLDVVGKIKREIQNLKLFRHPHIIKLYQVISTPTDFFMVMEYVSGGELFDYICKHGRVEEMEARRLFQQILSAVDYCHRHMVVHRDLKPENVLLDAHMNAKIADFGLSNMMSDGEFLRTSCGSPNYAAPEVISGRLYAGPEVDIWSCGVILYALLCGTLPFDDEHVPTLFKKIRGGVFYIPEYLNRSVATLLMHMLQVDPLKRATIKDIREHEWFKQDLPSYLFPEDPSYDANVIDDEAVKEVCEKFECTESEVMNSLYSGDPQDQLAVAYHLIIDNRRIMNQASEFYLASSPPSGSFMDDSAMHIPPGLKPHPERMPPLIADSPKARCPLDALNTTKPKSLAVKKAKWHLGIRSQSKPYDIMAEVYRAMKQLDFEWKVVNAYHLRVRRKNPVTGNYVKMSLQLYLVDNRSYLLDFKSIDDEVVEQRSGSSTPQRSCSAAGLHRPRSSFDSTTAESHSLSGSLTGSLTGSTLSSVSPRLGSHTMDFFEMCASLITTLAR
Chain of UniProt P32246 (whole entry, looked up): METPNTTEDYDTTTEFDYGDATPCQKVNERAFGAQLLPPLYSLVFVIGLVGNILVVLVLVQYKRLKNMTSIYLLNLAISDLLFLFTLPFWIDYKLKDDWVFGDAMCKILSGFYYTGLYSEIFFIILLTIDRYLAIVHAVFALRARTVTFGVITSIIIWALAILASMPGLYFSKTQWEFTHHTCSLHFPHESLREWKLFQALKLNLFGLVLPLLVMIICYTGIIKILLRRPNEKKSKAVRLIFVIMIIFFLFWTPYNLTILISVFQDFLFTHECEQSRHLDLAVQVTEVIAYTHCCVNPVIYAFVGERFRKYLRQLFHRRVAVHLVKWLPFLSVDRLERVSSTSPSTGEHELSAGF

SMILES | target or system | assay | system | setting | how to read | quantity | result
CC(C)CC(C(=O)N1CC2(CC1C#N)C(=O)Nc1ccccc12)N(C)C(=O)c1cc2c(F)cc(F)c(F)c2[nH]1 (stereo not shown) | Replicase polyprotein 1ab, main protease (rep, Porcine epidemic diarrhea virus, UniProt P0C6Y4) | protease activity, inhibitor | – | 3162.56 µM | – | remaining activity | 0%
Cc1ccc2c(C(C[N+](=O)[O-])c3cccs3)c(-c3ccccc3)[nH]c2c1 (stereo not shown) | Cannabinoid receptor 1 (CNR1, Homo sapiens, UniProt P21554) | β-arrestin recruitment, agonist, luciferase | – | – | – | Emax | 100%
CC(C)(C)C(=O)OCOP(=O)(OCOC(=O)C(C)(C)C)C1CCCN(O)C1=O (stereo not shown) | Malme-3M | – | – | – | – | log LC50 | > -4 log M
Cc1sc2c(c1C)C(c1ccc(Cl)cc1)=NC(CC(=O)OC(C)(C)C)c1nnc(C)n1-2 (stereo not shown) | C-C chemokine receptor type 1 (CCR1, Homo sapiens, UniProt P32246) | ligand displacement, radioligand | – | 1 µM | – | inhibition | -4%
COc1ccccc1-c1n[nH]c2nc(NC3CCN(C(=O)Cc4ccc(F)cc4F)CC3)ncc12 | – | bead binding, competition bead pull-down, measured: LINJ.36.2490 | Leishmania donovani extract | 10 µM | reference: vehicle | relative abundance | 0.82
CCCCCn1cc(C(=O)c2cccc3c2CC(C)(C)C3)c2ccccc21 | Cannabinoid receptor 1 (CNR1, Homo sapiens, UniProt P21554, I267L/L193I/L359V) | cAMP inhibition, agonist, CAMYEL BRET biosensor | – | added: forskolin 10 µM | reference: reference agonist at wild type | Emax | 110 ± 1.5%
CC(C)[C@H]1NC(=O)C[C@H]2/C=C/CCSSC[C@@H](NC1=O)C(=O)N[C@H](Cc1cccc3ccccc13)C(=O)NCC(=O)O2 | Serine/threonine-protein kinase 38 (STK38, Homo sapiens, UniProt Q15208) | enzyme activity, inhibitor | – | 10 µM | – | inhibition | -0.4%
CS(C)(=O)=Nc1ccc(-c2ccc(-c3nc4cc(O[C@@H]5CO[C@H]6[C@@H]5OC[C@H]6O)[nH]c4cc3F)cc2)cc1 | 5'-AMP-activated protein kinase catalytic subunit alpha-2 (PRKAA2, Homo sapiens, UniProt P54646) | enzyme activity, inhibitor | – | 10 µM | – | inhibition | 19%
COc1ccccc1-c1n[nH]c2nc(N[C@H]3CC[C@H](NS(=O)(=O)CC(C)C)CC3)ncc12 | – | bead binding, competition bead pull-down, measured: LINJ.36.3100 | Leishmania donovani extract | 10 µM | reference: vehicle | relative abundance | 0.9
CCOCC1C(c2ccc(Cl)c(Cl)c2)CC2CCC1N2C (stereo not shown) | Sodium-dependent dopamine transporter (SLC6A3, Homo sapiens, UniProt Q01959) | dopamine uptake | – | 0.001 µM, 0.03333 h, added: [3H]dopamine | reference: no inhibitor | remaining activity | 40%
COc1ccccc1C(C[N+](=O)[O-])c1c(-c2ccccc2)[nH]c2ccccc12 (stereo not shown) | Cannabinoid receptor 1 (CNR1, Homo sapiens, UniProt P21554, I169A) | Gαi1-γ2 dissociation, BRET | – | – | – | Emax | 71.7 ± 2.06%
O=C1NC2(CC2)COc2ncc(F)cc2[C@H]2COCCN2c2ccn3ncc1c3n2 | – | – | Sprague-Dawley rat, male, serum | oral, 10 mg/kg/day, end of treatment, 4-week subacute toxicity | – | serum triglycerides | 0.52 ± 0.23 mmol/L
Cc1cc(C(=O)Nc2nc3cccc(C)c3n2[C@H]2CCCCN(C(=O)/C=C/CN(C)C)C2)ccn1 | Trypanosoma brucei brucei | – | 2T1 CLK1 overexpressing | 0.0391 µM, DMSO pretreated | reference: maximum | survival | 64.8% and 55% and 65.9% and 61.9%
O=C1NC(=O)c2c1c1cc(F)c[n+]3c1c1c2c2cc(O)ccc2[n]1[Ru-4]312([N]=C=S)[S+]3CC[S+]1CC[S+]2CC3 (stereo not shown) | MAP kinase-activated protein kinase 2 (MAPKAPK2, Homo sapiens, UniProt P49137) | enzyme activity | – | 100 nM, human enzyme, added: 10 µM ATP | reference: untreated | remaining activity | 112%
CN(C)[C@H]1C[C@@]23CC[C@@]4(O2)C(=CC[C@]2(C)[C@@H](c5ccc6ccncc6c5)CC[C@H]24)C=C3[C@@H](O)[C@@H]1O | STE20-related kinase adapter protein alpha (STRADA, Homo sapiens, UniProt Q7RTN6) | ATP probe labelling, inhibitor, KiNativ profiling | – | 0.1 µM | – | inhibition | -6.6%
Nc1ccc(/C=C/C(=O)N2CCc3c(oc4c(-c5ccc(F)cc5)cc(-c5ccc(C(=O)N6CCC(F)(F)CC6)cn5)cc34)C2)cn1 | Serine/threonine-protein kinase Chk1 (CHEK1, Homo sapiens, UniProt O14757) | binding, competition with immobilised ligand | – | 1 µM | – | remaining binding | 90%
